Measurements pooled from the literature.
Every numbered part comes from another study and shows a few of its results, in no order.

Set 1
Target: RNA binding protein fox-1 homolog 2, RRM domain, GST-SBP tag (RBFOX2, Homo sapiens, UniProt O43251-10, residues 100-194)
Method: RNA Bind-n-Seq
Form: RNA
Matrix: in vitro
Concentration: 365 nM
Setting: natural RNA segment, single round, ends assumed
Relative to: no-protein control
Reading: higher = stronger binding
Endpoint: RBNS enrichment (R)
Construct (chain): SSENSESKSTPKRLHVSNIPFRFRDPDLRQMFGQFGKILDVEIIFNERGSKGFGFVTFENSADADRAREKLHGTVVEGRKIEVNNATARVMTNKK
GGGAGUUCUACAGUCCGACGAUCUGCAAAACAGGAGCCAGCCUGGGCUCUGUGCCUACCUCAAGGGGAGCUGGGGGUUGGGGGGACUGACCCUCCCCAGGGAGGUCUUACAAGUAGUGUGACCAGUCUUUUGUUGGAAUUCUCGGGUGCCAA: 0.696
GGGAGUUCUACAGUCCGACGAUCUCAUGCUGCUGAGCCUCUAUUUUCUUUCUUUGAUGUUUUGAUUCAGUAUUCUUUUAUCAUAAAUUUUUAGCAUUUAAAAAUUCACUGAUGUACAUUAAGCCAAUAAACUGUGGAAUUCUCGGGUGCCAA: 0.578
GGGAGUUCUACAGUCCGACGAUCGAUGCCCCCUCCCAAGUCCACCAAUGUACCACGUUGCUGACACAGCCUUCAUUUUUAACUCAAAUUGAUGCUCAGUAAAGGUCAAUGACAAUUUGUUCAAGGAAGUUCAUUGGAAUUCUCGGGUGCCAA: 0.515
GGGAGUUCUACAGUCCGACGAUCCCAGAUACCUUGGCCGCCAAACUUCGUUUUCAAACACUGUGUUUUAUUGUGUAGACCUUGAAAACCACGGUUUCAGUGAAGAAGGAUUCUGUAGGGUUCACUCUUCUGCAUGGAAUUCUCGGGUGCCAA: 1.19
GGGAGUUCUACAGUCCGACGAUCACCGGUCCCCCCCUAGCCCGUCAUCAGCCGGUGGCAGCUCCAUCUUCCAUUCCUGGUUUUAGGGCAGAAUCCAUGGAGACUGCUUCCAGAAGGCAUCUGGCUCUGAGUUAUGGAAUUCUCGGGUGCCAA: 0.4
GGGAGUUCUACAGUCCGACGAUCGCCGCCCUGUGGACUCCUGGGGCUGGUGCCAGUGCCCCAGGCCUGUGGGUGAGGGGCUCAAGGCCCCCCUGGAGGACCUUGGUCUCGAAGCCAUACGUGGUUGUCUGCCUUGGAAUUCUCGGGUGCCAA: 0.235
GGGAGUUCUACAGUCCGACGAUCCACUGAAUAAAAACCUCCUGAACUGGGAACAAAGAUCUACAGGCAAGCAAGAUGCCCACACAACAGGCUUAUUUUCUGUGAAGGAACCAACUGAUCUCCCCCACCCUUGGUGGAAUUCUCGGGUGCCAA: 0.741
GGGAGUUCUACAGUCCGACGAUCAGAGAGUCGGAGAUGAUGCAGCACACACACAAUUCCCCAGCCCAGUGAUGCUUGUGUUGACCAGAUGUUCCUGAGUCUGGAGCAAGCACCCAGGCCAGAAUAACAGAGCUUGGAAUUCUCGGGUGCCAA: 0.998

Set 2
Target: Ras GTPase-activating protein-binding protein 1, full length (G3BP1, Homo sapiens, UniProt Q13283)
UniProt Q13283, sequence (whole entry, looked up): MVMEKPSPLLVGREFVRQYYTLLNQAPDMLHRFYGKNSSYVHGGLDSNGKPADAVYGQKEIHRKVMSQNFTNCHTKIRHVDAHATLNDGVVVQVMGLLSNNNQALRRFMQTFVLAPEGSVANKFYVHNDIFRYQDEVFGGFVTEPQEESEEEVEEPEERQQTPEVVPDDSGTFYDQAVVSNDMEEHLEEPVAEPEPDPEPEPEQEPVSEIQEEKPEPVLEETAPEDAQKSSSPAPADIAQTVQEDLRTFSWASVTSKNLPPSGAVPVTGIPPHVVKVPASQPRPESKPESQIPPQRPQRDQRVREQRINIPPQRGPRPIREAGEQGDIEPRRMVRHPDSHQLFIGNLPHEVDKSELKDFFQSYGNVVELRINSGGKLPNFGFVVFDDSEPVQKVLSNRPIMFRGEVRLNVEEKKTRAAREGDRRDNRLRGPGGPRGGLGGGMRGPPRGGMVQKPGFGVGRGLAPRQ
Method: RNA Bind-n-Seq
Form: RNA
Matrix: in vitro
Concentration: 200 nM
Setting: whole 134-nt RNA, ends assumed
With: 150 mM KCl
Relative to: input library
Reading: higher = stronger binding
Endpoint: log2 enrichment
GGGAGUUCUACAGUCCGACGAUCAAGUCCUGUGCUACACAUCGUAUGUACCGAAUCGGGUUUUUGGGAGGGAAAAAGGGAAAGUAUUAUGUUACGCCGUUCGGAUCUGCACUUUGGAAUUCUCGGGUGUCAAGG: 0.00325
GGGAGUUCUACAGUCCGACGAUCCACAGACAGCACGCACCCACACAGACACAGAGGGAAGGGGUUGGGAUGGGGACAGGGUGCACAGCAGGGCGGGGUAGGACCCCAGCCCCUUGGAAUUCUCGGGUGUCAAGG: 1.77
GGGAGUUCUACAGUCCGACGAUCCUGUGCUACACAUCGUAUGUACCGAAUCGGCCCCCCCGGGGCCCCCCCGGCCCCCCCGGGGAAAGUAUUAUGUUACGCCGUUCGGAUCUGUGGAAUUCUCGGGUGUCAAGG: -0.754
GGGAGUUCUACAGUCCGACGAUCUGGCCCUGGUGGCAUGCGGGGAGGAAGAGGUGGCCUCAUGGAUCGUGGUGGUCCCGGUGGAAUGUUCAGAGGUGGCCGUGGUGGAAACAGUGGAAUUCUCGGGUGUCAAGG: 0.218
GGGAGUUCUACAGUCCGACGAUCGCAGGAAGUAAAAACAAAUGGAAAUGCUUCGGAUAGUGGCAGGGGUGGGUGUUGCUAAGGAAAGGGUGGGAUGGGAGUGGGUAAAGAGUUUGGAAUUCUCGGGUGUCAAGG: 0.838
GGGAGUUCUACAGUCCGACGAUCAAGUCCUGUGCUACACAUCGUAUGUACCGAAUCGGAAAAAGGUUUUUUUGGAAAGGAAAGUAUUAUGUUACGCCGUUCGGAUCUGCACUUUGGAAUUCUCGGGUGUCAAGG: -1.77
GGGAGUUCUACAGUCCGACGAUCUGUGCUACACAUCGUAUGUACCGAAUCGGGUUUUUUUGGGGUUUUUUUGGGGUUUUUUUGGGAAAGUAUUAUGUUACGCCGUUCGGAUCUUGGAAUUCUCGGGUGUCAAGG: -0.777
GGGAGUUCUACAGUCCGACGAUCGUCCUGUGCUACACAUCGUAUGUACCGAAUCGGCCCCCGGGGCCCCCGGGCCCCCGGGGAAAGUAUUAUGUUACGCCGUUCGGAUCUGCAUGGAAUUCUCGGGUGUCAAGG: -0.945

Set 3
Target: Hepatocyte nuclear factor 3-beta, forkhead domain (FOXA2, Homo sapiens, UniProt Q9Y261, residues 142-269)
Method: protein-binding microarray
Form: hairpin DNA
Matrix: in vitro
Concentration: not given
Setting: whole hairpin DNA, median over replicate spots
Relative to: not given
Reading: higher = stronger binding
Endpoint: median fluorescence
All sequences stand within: GAGGCCA … TGGCCTCACACTC
Construct (chain): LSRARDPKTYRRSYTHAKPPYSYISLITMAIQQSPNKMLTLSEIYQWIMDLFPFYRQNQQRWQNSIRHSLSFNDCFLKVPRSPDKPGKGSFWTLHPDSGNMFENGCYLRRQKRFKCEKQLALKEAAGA
TGCACGCAACGCCTCCTGGCGTTGCGTGCA (5mC at 12 32): 3450 a.u.
TGCAACCAACGCCTCCTGGCGTTGGTTGCA (5mC at 10): 3350 a.u.
TGTAACCCGCGCCTCCTGGCGCGGGTTACA (5mC at 15 29): 3370 a.u.
TGCAAACAGCGCCTCCTGGCGCTGTTTGCA (5mC at 29): 3720 a.u.
TGCACACAACGCCTCCTGGCGTTGTGTGCA (5mC at 12): 3290 a.u.
TGTAACTAACGCCTCCTGGCGTTAGTTACA: 2900 a.u.
GGCAAACAACGCCTCCTGGCGTTGTTTGCC (5mC at 37): 3550 a.u.
TGCAAACTACGCCTCCTGGCGTAGTTTGCA: 3180 a.u.

Other studies, line by line
c1ccc(C(CNc2ccc3nnnn3n2)c2c[nH]c3ccccc23)cc1 (stereo not shown)  remaining compound (human, microsomes or S9; 2 µM, 0.5 h): 22.8%

Excerpt of the above (set 3):
TGTAACCCGCGCCTCCTGGCGCGGGTTACA (5mC at 15 29): 3370 a.u.
